# Published values of several laboratories.
# Compare with care: the assays were run in different laboratories. ± gives the spread as reported.
Compound,tested on,assay,test system,conditions,scale,quantity,value
C[C@]12CC[C@H]3[C@@H](CCC4=CC(=O)CC[C@@]43C)[C@@H]1CC[C@@H]2O,,lipid PAMPA,artificial lipid membrane,"10 µM, 16 h",,recovery,88.6%
COC(=O)[C@H]1[C@@H](OC(=O)c2ccccc2)C[C@@H]2CC[C@H]1N2C,,LC-MS/MS,"Sprague-Dawley rat, male, whole blood","intraperitoneal, 20 mg/kg",,AUC(0-inf),761 ± 45.2 ng·h/mL
Cc1ccc(-c2nc(C[S+]([O-])CC(=O)N3CCN(c4ccc(Cl)cc4)CC3)c(C)o2)cc1 (stereo not shown),Vero-E6,CellTiter-Glo ATP,,"concentration not given, 72 h, first round 5-point","reference: DMSO 0%, hyamine -100%, more negative, more toxic",cytotoxicity efficacy,-16.9%
CCCC(C(=O)c1ccc2c(c1)OCO2)N1CCCC1.Cl (racemic),,LC-MS/MS,"rat, trunk blood plasma","subcutaneous, 2 mg/kg, 240 min",,plasma concentration,18.8 ± 3 ng/mL
COc1cccc(C2(O)CCCCC2CN(C)C)c1 (stereo not shown),,joint PK model,"human, whole blood","oral, two-compartment metabolite model",,Kt,0.0346 L/h
CCCC(C(=O)c1ccc(O)c(OC)c1)N1CCCC1 (stereo not shown),,,rat,"subcutaneous, 4 mg/kg MDPV, 240 min",,brain-to-plasma ratio,0.2 ± 0.1
O=C(C1CCCCC1)N1CCN(S(=O)(=O)c2cccc3cnccc23)CC1,,,human,"5 µM, added: ketoconazole 3 µM",,CYP3A contribution to clearance,0%
CC(=O)Oc1ccc2c3c1O[C@H]1[C@@H](OC(C)=O)C=C[C@H]4[C@@H](C2)N(C)CC[C@@]341,,LC-MS/MS,"Sprague-Dawley rat, male, whole blood","intraperitoneal, 10 mg/kg",,AUC(0-inf),4 ± 0.667 ng·h/mL
O=C1c2c(O)c(=O)ccn2N([C@@H]2c3ccccc3SCc3c2ccc(F)c3F)[C@@H]2COCCN12,,,BALB/c mouse,"subcutaneous, 0.25 mg/kg q24h",,trough concentration,0.0818 ng/mL
CN1COCN(Cc2cnc(Cl)s2)/C1=N\[N+](=O)[O-],,,soil,"0 days, nominal 10",,recovery,73%
Cc1ncc(OC[C@@]2(c3cccc(F)c3)C[C@H]2C(=O)Nc2ccc(F)cn2)c(C)n1,,population PK base model,"human, plasma",oral,,V4/F,845 L
COc1ccccc1-c1ccc(CN2CCCC(c3nc4ccc(C)cc4c(=O)[nH]3)C2)cc1 (stereo not shown),Vero-E6,CellTiter-Glo ATP,,"72 h, first round 5-point","reference: DMSO 0%, hyamine -100%, more negative, more toxic",maximum response,-26.8%
Cc1ncc2n1-c1ccc(Cl)cc1C(c1ccccc1F)=NC2,,,healthy humans,"oral, dose not given",,gastrointestinal adverse events,0%
Cc1ncc2n1-c1ccc(Cl)cc1C(c1ccccc1F)=NC2,,,"wild-type mice, plasma","intravenous, 0.3 mg/kg, added: 3-day PB, BC 500 mg/kg and PCN 10 mg/kg",,half-life,26.7 ± 11.8 min
CCC(CC)COC(=O)[C@H](C)N[P@](=O)(OC[C@H]1O[C@@](C#N)(c2ccc3c(N)ncnn23)[C@H](O)[C@@H]1O)Oc1ccccc1,,,healthy human volunteers,dose not given,,tolerability,not toxic
CN(C)C[C@H]1CCCC[C@]1(O)c1cccc(O)c1,,joint PK model,human,"dose not given, two-compartment metabolite model",,metabolite peripheral volume,0.561 L
COc1ccc2c3c1O[C@H]1[C@@H](O)CC[C@@]4(O)[C@@H](C2)N(C)CC[C@]314,,pH-potentiometric titration,,,reference: O-methyl derivative,"Δlog K, 14-hydroxylation effect",0.5 log units
CCN(CC)C(=O)[C@@H]1C=C2c3cccc4[nH]cc(c34)C[C@H]2N(C)C1,,item: tendency to cry,healthy volunteers,"dose not given, 0 to 12 h","reference: placebo, direction not given",List of Complaints score,0
OCc1ncc2n1-c1ccc(Cl)cc1C(c1ccccc1F)=NC2,,,"human, plasma","oral, 7.5 mg of midazolam, day 1, arithmetic mean, no amenamevir",,AUC(0-t),45.8 ng·h/mL
COC(=O)[C@@H]1[C@H]2CC[C@@H](C[C@@H]1O)N2C,,LC-MS/MS,"Sprague-Dawley rat, whole blood","intraperitoneal, 20 mg/kg of cocaine",,AUC(0-inf),530 ± 29.8 ng·h/mL
CCOC(=O)Nc1ccc(NCc2ccc(F)cc2)cc1N,,rotarod test,"mouse, CCI neuropathic pain model",10 mg/kg,,time to fall,1.61 ± 0.13 min
OCc1ncc2n1-c1ccc(Cl)cc1C(c1ccccc1F)=NC2,,,"healthy volunteers, plasma","dose not given, added: momelotinib multiple-dose",reference: compound alone,AUCinf decrease,16%
CCCCCCCCCCC(=O)O[C@H]1CC[C@H]2[C@@H]3CCC4=CC(=O)CC[C@]4(C)[C@H]3CC[C@]12C,,item: testosterone,"human, plasma","oral, 237 mg",,t1/2,11.9 h
C/C=C1/CN2CC[C@]34C(=C(C(=O)OC)[C@H]1C[C@H]23)Nc1ccc(Br)cc14,,,CD-1 mouse,"subcutaneous, 10 mg/kg, 10 min",reference: baseline,rotarod latency,~30%
CN/C(=N\[N+](=O)[O-])NCc1cnc(Cl)s1,,,soil,"28 days, nominal 0.37",,recovery,46%
Cc1ncc2n1-c1ccc(Cl)cc1C(c1ccccc1F)=NC2,,,"healthy volunteers, plasma","oral, 5 mg, day 11, added: momelotinib, once daily 200 mg, days 4-11",,Tmax,1 h
CCCC(C(=O)c1ccc(O)c(O)c1)N1CCCC1 (stereo not shown),,,rat,"subcutaneous, 4 mg/kg MDPV, 40 min",,brain-to-plasma ratio,0.1 ± 0.1
C#Cc1ccc2c(c1)C(c1ccccn1)=NCc1c(-c3cnco3)ncn1-2,,,CD-1 mouse hepatocytes,"2 µM, 4 h, 37 °C",,metabolite peak area share,60.5%

# Excerpt of the above:
Compound,tested on,assay,test system,conditions,scale,quantity,value
CCCCCCCCCCC(=O)O[C@H]1CC[C@H]2[C@@H]3CCC4=CC(=O)CC[C@]4(C)[C@H]3CC[C@]12C,,item: testosterone,"human, plasma","oral, 237 mg",,t1/2,11.9 h
C/C=C1/CN2CC[C@]34C(=C(C(=O)OC)[C@H]1C[C@H]23)Nc1ccc(Br)cc14,,,CD-1 mouse,"subcutaneous, 10 mg/kg, 10 min",reference: baseline,rotarod latency,~30%
CN/C(=N\[N+](=O)[O-])NCc1cnc(Cl)s1,,,soil,"28 days, nominal 0.37",,recovery,46%
